Assay results collected from several papers.
Every numbered part comes from another study and shows a few of its results, in no order. Values joined by “and” are separate records of one study, mostly repeats; a detail may differ.
Chain of UniProt Q6P2M8 (whole entry, looked up): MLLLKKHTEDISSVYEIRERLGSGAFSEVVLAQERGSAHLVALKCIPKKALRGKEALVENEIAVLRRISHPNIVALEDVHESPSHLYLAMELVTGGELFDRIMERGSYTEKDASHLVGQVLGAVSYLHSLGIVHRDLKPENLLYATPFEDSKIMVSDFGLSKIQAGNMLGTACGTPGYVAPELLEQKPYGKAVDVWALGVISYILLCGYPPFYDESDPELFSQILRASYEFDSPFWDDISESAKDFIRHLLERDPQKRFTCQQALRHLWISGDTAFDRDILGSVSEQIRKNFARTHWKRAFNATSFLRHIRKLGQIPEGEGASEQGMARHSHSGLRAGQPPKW
Chain of UniProt P50750 (whole entry, looked up): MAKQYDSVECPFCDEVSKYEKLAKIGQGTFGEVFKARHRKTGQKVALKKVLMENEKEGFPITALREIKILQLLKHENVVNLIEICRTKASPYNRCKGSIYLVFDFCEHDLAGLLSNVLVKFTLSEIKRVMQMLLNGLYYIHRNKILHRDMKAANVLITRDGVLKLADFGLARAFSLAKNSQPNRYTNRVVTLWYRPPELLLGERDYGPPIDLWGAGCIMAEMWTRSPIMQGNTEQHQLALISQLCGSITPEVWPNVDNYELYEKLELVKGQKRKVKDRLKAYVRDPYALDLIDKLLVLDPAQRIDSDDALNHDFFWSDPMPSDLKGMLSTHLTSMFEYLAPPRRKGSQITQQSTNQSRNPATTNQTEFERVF
Chain of UniProt Q13464 (whole entry, looked up): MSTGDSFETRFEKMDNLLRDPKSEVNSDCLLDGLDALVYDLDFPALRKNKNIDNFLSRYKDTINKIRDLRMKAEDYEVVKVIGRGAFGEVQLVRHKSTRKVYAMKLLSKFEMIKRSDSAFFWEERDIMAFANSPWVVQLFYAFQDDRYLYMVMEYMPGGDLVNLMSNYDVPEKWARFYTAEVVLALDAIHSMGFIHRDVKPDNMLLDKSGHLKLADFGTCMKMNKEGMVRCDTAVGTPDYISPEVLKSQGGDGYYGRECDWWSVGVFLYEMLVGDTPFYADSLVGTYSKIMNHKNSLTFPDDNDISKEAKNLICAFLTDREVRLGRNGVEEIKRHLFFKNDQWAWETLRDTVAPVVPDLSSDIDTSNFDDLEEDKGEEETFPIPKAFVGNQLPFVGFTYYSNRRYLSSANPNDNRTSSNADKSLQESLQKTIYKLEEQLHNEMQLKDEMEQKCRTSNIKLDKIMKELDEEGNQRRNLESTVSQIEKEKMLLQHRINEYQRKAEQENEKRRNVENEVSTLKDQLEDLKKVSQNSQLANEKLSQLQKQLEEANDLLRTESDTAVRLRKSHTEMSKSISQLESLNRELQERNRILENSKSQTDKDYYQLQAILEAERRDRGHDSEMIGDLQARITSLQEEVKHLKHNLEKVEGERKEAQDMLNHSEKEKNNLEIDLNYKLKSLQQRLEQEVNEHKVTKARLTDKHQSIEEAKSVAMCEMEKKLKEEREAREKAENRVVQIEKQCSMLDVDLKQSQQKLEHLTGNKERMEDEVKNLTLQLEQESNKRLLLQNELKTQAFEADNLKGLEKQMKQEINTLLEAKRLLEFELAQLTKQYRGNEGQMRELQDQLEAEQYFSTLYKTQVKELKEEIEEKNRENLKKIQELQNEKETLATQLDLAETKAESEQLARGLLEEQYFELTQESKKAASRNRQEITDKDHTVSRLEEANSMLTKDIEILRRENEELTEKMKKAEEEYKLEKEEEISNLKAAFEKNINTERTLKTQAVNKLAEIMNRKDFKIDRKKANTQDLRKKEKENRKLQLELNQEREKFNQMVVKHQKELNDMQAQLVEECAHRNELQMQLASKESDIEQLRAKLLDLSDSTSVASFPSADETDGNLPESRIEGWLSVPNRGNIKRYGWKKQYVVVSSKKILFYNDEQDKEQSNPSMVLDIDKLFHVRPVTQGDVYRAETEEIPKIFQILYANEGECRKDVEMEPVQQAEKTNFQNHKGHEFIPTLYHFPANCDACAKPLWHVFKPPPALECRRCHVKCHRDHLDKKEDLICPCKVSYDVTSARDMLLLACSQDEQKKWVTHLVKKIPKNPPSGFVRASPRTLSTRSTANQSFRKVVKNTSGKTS
Chain of UniProt P08581 (whole entry, looked up): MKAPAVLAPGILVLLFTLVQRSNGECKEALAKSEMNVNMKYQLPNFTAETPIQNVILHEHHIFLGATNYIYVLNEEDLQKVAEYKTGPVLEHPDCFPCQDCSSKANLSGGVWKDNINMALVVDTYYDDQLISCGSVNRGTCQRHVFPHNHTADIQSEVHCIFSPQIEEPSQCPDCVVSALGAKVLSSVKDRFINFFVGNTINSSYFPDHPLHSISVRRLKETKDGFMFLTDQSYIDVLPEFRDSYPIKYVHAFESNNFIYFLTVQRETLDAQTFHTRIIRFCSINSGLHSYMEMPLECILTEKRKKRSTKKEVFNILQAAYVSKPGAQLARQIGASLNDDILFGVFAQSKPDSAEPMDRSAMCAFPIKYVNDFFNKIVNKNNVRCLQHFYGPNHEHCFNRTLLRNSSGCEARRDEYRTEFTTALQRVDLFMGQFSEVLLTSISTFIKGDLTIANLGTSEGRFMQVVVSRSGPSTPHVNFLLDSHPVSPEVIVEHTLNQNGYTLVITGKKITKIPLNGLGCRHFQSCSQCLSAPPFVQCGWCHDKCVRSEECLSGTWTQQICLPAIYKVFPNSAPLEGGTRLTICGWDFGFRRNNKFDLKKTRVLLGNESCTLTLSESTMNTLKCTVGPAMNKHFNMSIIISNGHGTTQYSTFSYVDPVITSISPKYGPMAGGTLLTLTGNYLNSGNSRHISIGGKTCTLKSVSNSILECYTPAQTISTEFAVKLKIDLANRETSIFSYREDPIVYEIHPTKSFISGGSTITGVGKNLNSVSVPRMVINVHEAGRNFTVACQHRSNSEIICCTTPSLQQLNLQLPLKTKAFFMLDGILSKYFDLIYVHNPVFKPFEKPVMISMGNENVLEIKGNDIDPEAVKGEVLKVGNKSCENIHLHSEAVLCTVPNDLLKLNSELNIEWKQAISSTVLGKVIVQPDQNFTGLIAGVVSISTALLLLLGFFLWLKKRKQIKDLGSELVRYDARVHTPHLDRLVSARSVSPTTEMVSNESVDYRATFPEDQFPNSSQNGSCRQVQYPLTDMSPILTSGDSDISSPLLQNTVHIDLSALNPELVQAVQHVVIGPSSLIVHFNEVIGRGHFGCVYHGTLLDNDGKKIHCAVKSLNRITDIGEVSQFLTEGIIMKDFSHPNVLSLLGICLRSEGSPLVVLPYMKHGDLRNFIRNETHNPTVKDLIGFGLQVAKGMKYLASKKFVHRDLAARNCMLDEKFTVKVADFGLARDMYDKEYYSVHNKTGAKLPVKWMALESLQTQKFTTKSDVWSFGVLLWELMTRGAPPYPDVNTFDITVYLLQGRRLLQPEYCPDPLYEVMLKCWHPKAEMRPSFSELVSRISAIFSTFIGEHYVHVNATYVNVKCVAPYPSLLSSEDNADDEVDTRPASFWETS
Chain of UniProt Q86UE8 (whole entry, looked up): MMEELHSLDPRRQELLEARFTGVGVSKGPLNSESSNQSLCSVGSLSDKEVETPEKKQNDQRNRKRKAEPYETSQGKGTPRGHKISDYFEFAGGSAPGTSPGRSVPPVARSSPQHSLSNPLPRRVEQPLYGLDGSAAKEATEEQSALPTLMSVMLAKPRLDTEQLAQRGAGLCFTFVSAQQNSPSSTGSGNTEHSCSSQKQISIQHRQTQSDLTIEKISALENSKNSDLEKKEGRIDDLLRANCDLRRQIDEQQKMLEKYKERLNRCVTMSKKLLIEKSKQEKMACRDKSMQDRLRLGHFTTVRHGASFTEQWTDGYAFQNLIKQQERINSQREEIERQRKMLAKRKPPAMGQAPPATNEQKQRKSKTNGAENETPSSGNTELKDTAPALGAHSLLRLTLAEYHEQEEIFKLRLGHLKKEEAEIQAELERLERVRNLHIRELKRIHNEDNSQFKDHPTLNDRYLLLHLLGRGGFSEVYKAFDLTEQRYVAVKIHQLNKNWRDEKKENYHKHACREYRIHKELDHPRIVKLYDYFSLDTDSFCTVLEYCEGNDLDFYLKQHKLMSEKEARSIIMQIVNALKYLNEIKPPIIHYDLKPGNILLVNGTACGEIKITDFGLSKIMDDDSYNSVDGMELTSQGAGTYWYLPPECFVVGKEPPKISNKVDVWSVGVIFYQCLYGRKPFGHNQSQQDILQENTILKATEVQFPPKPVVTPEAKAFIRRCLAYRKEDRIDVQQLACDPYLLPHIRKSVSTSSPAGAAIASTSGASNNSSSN
Chain of UniProt P32298 (whole entry, looked up): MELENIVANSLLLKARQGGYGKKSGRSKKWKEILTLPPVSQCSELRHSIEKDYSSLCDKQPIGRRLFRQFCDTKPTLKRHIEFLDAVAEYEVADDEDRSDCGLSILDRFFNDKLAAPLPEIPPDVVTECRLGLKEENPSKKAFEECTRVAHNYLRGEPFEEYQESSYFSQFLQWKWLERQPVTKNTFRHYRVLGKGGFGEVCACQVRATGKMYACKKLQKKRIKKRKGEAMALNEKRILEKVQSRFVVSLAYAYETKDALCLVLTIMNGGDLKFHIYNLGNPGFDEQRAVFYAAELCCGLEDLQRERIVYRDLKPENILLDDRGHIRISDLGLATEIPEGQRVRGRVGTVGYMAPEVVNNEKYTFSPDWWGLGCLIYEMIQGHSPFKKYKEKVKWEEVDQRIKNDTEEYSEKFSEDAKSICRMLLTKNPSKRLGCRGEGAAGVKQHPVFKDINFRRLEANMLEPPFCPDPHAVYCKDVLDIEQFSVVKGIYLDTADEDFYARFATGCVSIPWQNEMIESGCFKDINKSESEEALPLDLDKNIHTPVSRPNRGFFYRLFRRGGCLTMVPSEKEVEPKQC

Study 1
Cell line: sample D normal colon organoid
Method: CellTiter-Glo
Tested at: 0.1 µM
Setting: mean of replicates
Reference: DMSO
Compound	viability [%]
CC(C)CC(=O)N1CCc2nc(-c3ccc(Br)cc3)nc(N(C)Cc3ccccc3)c2C1	117
CCS(=O)(=O)c1cc2cc(C[C@@](O)(CC(C)(C)c3ccc(F)cc3C(N)=O)C(F)(F)F)[nH]c2cn1	142
N#Cc1ccc(Nc2ccc3[nH]c(=O)[nH]c3c2)c(Cl)c1	101
CCOC(=O)c1cc2cc(-c3cc(C(=O)NCc4ccc(C(=O)O)cc4)nn3C)ccc2[nH]1	111
COCCOc1nc(-c2ccc(Cl)nc2)nc2c1CN(C(=O)c1ncn3ccccc13)CC2	119
Cc1ccc(-c2cnc([C@@]3(O)CC[C@H](C(=O)O)C(C)(C)C3)s2)cc1Nc1cccc(C(F)(F)F)n1	92.2
CN(C)C(=O)Cn1cc(-c2nc([C@@](C)(c3ccc(-c4cnc(N)nc4)cc3)C3CC3)no2)cn1	84

Study 2
SMILES: Cn1nc2c3c(cccc31)C(=O)c1ccccc1-2
Effect on: enzyme activity
Action: inhibitor
Tested at: 0.5 µM
Reference: control
target	remaining activity [%]
GRK4 (Homo sapiens, UniProt P32298)	105
MET (Homo sapiens, UniProt P08581)	107
PNCK (Homo sapiens, UniProt Q6P2M8)	101
RPS6KA4 (Homo sapiens, UniProt O75676)	105
NEK3 (Homo sapiens, UniProt P51956)	96.7
MARK2 (Homo sapiens, UniProt Q7KZI7)	94.1
CLK4 (Homo sapiens, UniProt Q9HAZ1)	69.8
PRKG2 (Homo sapiens, UniProt Q13237)	105
TLK2 (Homo sapiens, UniProt Q86UE8)	101
PLK3 (Homo sapiens, UniProt Q9H4B4)	96.2
ROCK1 (Homo sapiens, UniProt Q13464)	98.4
MAP2K1 (Homo sapiens, UniProt Q02750)	86.3
CDC42BPB (Homo sapiens, UniProt Q9Y5S2)	98
Cyclin-dependent kinase 9, with cyclin K (CDK9, Homo sapiens, UniProt P50750)	96.5

Study 3
Cell line: mouse MPNST tumor cells
Method: high-content nuclear imaging
Measured: cell number
Tested at: 10 µM
Time: 12 h
Setting: mean of 2 replicates
Reference: plate mean
Direction: higher = more cells
SMILES	nuclei count
Clc1ccc(C(c2ccccc2Cl)C(Cl)Cl)cc1 (centres unmarked)	1.01 z-score and 0.373 z-score
CNC[C@H](O)[C@@H](O)[C@H](O)[C@H](O)CO	2.13 z-score
Cc1cccc(C)c1NC(=O)CN1CCN(CCCC(c2ccc(F)cc2)c2ccc(F)cc2)CC1	-4.97 z-score
CC(C)Nc1cccnc1N1CCN(C(=O)c2cc3cc(NS(C)(=O)=O)ccc3[nH]2)CC1	1.02 z-score and 1.16 z-score
O=C(O)c1ccccc1C(=O)Nc1ccc(-c2ccccc2)cc1	1.9 z-score

Study 4
SMILES: CC(=O)N[C@@H](Cc1c[nH]c2ccccc12)C(=O)N[C@@H](CCC(=O)C=[N+]=[N-])C(=O)OC(C)C
Direction: direction not given
assay	test system	setting	GI histopathology sum score
histopathology, scale 0-6	mouse C57BL/6 CES1-/-, GI tissue	intravenous, 2.6 mg/kg	5 and 4
–	C57BL/6 CES1-/- mouse, gastrointestinal tissue	subcutaneous, 0.26 mg/kg, scale 0-6 per slide	0
–	C57BL/6 CES1-/- mouse, gastrointestinal tissue	subcutaneous, 2.6 mg/kg, scale 0-6 per slide	1 and 2

A few entries again (study 4):
assay	test system	setting	GI histopathology sum score
histopathology, scale 0-6	mouse C57BL/6 CES1-/-, GI tissue	intravenous, 2.6 mg/kg	5 and 4
–	C57BL/6 CES1-/- mouse, gastrointestinal tissue	subcutaneous, 2.6 mg/kg, scale 0-6 per slide	1 and 2
–	C57BL/6 CES1-/- mouse, gastrointestinal tissue	subcutaneous, 0.26 mg/kg, scale 0-6 per slide	0
